Literature values, collected from citations in different studies.
Compare with care: the assays were run in different laboratories. Numbers after ± are the reported error.
UniProt Q6XUX3, sequence (whole entry, looked up): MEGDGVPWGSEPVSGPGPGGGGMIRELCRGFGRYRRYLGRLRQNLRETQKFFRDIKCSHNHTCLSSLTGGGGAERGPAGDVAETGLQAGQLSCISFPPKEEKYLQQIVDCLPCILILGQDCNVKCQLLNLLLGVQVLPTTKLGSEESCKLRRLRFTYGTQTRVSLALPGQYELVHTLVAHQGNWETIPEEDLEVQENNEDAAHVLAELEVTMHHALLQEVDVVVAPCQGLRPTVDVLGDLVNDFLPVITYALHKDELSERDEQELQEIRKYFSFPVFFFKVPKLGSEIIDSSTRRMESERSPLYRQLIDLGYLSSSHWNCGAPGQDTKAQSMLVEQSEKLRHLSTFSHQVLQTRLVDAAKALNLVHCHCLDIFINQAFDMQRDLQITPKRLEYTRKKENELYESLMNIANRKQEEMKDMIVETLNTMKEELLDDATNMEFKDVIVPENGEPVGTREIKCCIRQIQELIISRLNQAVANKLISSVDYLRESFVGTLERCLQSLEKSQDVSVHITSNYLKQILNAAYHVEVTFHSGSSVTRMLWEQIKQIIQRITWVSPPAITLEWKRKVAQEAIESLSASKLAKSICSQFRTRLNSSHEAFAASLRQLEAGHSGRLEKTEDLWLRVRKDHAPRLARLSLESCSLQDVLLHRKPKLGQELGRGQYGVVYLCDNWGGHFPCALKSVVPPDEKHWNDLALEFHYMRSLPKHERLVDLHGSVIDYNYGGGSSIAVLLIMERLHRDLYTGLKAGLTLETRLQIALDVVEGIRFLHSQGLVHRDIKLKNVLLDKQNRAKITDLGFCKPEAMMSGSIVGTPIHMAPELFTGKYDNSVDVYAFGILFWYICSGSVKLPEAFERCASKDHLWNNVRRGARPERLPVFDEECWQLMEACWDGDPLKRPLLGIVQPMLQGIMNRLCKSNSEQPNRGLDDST

`CN(C)C(=O)c1cc2cnc(Nc3ccc(N4CCNCC4)cn3)nc2n1C1CCCC1`: “adverse event incidence” 26.3% (measured: anemia; advanced solid tumour or lymphoma patients; dose not given, continuous dosing; relative to: patients).
For `COc1ccc2[nH]c([S+]([O-])Cc3ncc(C)c(OC)c3C)nc2c1` (centres unmarked), the AUC was 1510 ng·h/mL (human obese subjects; oral tablet, 20 mg once daily, day 6).
`Nc1cc(C(F)(F)F)c(-c2nc(N3CCOCC3)nc(N3CCOCC3)n2)cn1` gave a remaining activity of 98% (Dual serine/threonine and tyrosine protein kinase (DSTYK, Homo sapiens, UniProt Q6XUX3); enzyme activity; 10 µM; relative to: untreated).
With `COCCc1ccc(OCC(O)CNC(C)C)cc1` (centres unmarked) the plasma clearance was 112 mL/min/kg (rat).
`Nc1nc(=O)n([C@@H]2CS[C@H](CO)O2)cc1F` gave a bioavailability of 96% (mouse; 10 mg/kg).
The AUC(0-inf) of `CN1CC(=O)N2[C@H](c3ccc4c(c3)OCO4)c3[nH]c4ccccc4c3C[C@@H]2C1=O` is reported as 170 ± 85 ng·h/mL (rat; oral, 1 mg/kg).
Under “protonation constant (log)”, `O=C(O)CN(CC(=O)O)CC(=O)O` is recorded as 1.06 (pH-potentiometry, measured: logK3H; 0.15 M NaClO4; 25 °C).
With `C=CC(=O)N1CCC([C@@H]2CCNc3c(C(N)=O)c(-c4ccc(Oc5ccccc5)cc4)nn32)CC1` the AUC(0-8h) was 2450 ± 1060 ng·h/mL (human patients; oral, 320 mg once daily, day 1).
With `C=C1[C@H](CO)[C@@H](O)C[C@@H]1n1cnc2c(=O)[nH]c(N)nc21` the oral bioavailability was 91% (dog; 10 mg/kg).
With `C[C@@H](Oc1ccc(S(C)(=O)=O)cc1C(=O)N1C[C@@H]2C[C@]2(c2cc(C(F)(F)F)on2)C1)C(F)(F)F` the AUClast ratio was 0.1 (human; 25 mg single, with: rifampicin; relative to: with over without rifampicin).
`CCN1CCN(Cc2ccc(Nc3ncc(F)c(-c4cc(F)c5nc(C)n(C(C)C)c5c4)n3)nc2)CC1` gave an AUC(0-t) of 3880 ng·h/mL (human; 100 mg single dose, tablet).
The logKow of `c1ccc2cc3c(ccc4ccccc43)cc2c1` is reported as 5.97 (slow stirring).
`CCCCCC(CCC)C(=O)O` (centres unmarked) has an EC10 of 153 µM (small eyes; zebrafish embryo; nominal concentration).
With `COc1cc2c(Oc3ccc4[nH]c(C)cc4c3F)ccnc2cc1OCC1(N)CC1` the MRT(0-t) was 86 ± 6.5 h (human, fasted; oral, 5 mg).
For `Cc1cc(C)c(CNC(=O)c2cc(Cl)c3c(c2C)O[C@@](C)([C@H]2CC[C@H](N(C)C)CC2)O3)c(=O)[nH]1`, “serious TEAE incidence” read 8.3% (relapsed/refractory ATLL patients; 200 mg/day, without fluconazole).
`CO[C@@H](C)Cn1c(=O)n(C)c2cnc3ccc(-c4cncc(C(C)(C)O)c4)cc3c21`: “patients with related adverse event” 2.1% (measured: grade ≥3 asthenia; cancer patients; dose not given, monotherapy).
For `CC(C)=CCC/C(C)=C/CC/C(C)=C/CC[C@@](C)(O)CCC1=C(C)C(=O)C(C)=C(C)C1=O`, clinical tolerability read “not toxic” (human, Friedreich's ataxia; concentration not given).
For `Cc1cc(-c2nccc3c2ccn3CC(=O)Nc2ccc(-c3cnccn3)cn2)ccn1`, the Cmax was 6.4 µM (measured: total drug; dog; dose not given, 1-month toxicology study).
For `C[C@]1(c2nc3c(C(N)=O)cccc3[nH]2)CCCN1`, the pKa1 was 9.22.
With `CC(C)c1ncc(C(=O)N2CCOC3(CCN(Cc4ccc(F)c(CCNC[C@H](O)c5ccc(O)c6[nH]c(=O)sc56)c4)CC3)C2)s1` the Tlast was 48 h (human, plasma; inhaled).
Under “stability at room temperature”, `CN[C@@H](C)C(=O)N[C@H]1CN(S(=O)(=O)c2cccc(S(=O)(=O)N3CC[C@H]4CC[C@@H](C(=O)NC(c5ccccc5)c5ccccc5)N4C(=O)[C@@H](NC(=O)[C@H](C)NC)C3)c2)CC[C@H]2CC[C@@H](C(=O)NC(c3ccccc3)c3ccccc3)N2C1=O` is recorded as 4 h (5 % glucose injection).
For `CCC(CC)C(=O)O`, the EC10 was 1000 µM (small eyes; zebrafish embryo; nominal concentration).
With `NC(=O)N1c2ccccc2C=Cc2ccccc21` the protective index was 7.7 (mouse; i.p., corneal kindling model).

Some of these lines once more:
For `CCC(CC)C(=O)O`, the EC10 was 1000 µM (small eyes; zebrafish embryo; nominal concentration).
With `NC(=O)N1c2ccccc2C=Cc2ccccc21` the protective index was 7.7 (mouse; i.p., corneal kindling model).
